Experimental data from different studies.
Every numbered part comes from another study and shows a few of its results, in no order.
UniProt Q92772, sequence (whole entry, looked up): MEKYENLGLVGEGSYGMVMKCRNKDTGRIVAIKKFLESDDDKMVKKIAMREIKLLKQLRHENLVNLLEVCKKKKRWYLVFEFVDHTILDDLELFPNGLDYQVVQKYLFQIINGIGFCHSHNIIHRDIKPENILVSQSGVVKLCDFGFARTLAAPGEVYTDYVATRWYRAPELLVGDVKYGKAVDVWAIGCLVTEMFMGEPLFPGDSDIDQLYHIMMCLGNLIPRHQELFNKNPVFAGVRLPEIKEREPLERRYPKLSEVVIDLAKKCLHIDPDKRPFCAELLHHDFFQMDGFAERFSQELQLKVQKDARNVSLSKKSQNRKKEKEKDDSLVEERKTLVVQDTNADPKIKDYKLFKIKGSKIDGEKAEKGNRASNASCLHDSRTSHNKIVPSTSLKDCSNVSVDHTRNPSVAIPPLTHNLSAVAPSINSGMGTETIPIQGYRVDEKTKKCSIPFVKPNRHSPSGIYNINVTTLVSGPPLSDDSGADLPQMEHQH
UniProt P07949, sequence (whole entry, unmodified, looked up): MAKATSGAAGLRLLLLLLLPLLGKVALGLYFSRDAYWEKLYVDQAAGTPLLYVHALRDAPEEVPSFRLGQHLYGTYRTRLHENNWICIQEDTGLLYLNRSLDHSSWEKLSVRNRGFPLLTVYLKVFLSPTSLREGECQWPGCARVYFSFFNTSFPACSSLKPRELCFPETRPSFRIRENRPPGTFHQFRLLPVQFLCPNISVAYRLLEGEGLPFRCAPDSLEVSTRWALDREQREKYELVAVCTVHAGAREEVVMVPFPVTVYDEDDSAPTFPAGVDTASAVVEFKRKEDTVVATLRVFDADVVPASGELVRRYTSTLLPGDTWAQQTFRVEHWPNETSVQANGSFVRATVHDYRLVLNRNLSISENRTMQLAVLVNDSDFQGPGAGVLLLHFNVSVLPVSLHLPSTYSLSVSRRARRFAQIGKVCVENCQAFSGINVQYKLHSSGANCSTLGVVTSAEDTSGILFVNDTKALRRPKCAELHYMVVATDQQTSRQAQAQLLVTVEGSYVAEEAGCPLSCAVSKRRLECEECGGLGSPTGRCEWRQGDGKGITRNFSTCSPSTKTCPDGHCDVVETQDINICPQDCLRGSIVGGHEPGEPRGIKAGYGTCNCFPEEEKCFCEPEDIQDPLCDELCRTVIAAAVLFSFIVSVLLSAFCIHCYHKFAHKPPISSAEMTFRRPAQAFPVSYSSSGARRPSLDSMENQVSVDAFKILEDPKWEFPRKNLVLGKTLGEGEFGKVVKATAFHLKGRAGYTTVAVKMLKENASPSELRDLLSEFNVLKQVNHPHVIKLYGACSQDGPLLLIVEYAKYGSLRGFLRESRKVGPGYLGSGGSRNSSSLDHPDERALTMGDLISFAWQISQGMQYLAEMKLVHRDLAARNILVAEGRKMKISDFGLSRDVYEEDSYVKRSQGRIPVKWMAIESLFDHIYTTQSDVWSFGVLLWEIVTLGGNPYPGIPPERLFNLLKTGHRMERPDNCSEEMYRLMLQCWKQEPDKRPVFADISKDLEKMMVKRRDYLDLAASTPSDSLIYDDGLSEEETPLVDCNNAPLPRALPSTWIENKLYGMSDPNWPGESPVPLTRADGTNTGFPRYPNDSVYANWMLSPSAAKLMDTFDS

Sample 1
Target: Histone acetyltransferase KAT6A, winged helix 1, GST fusion (KAT6A, Homo sapiens, UniProt Q92794, residues 1-85)
Technique: protein binding microarray
Molecule type: double-stranded DNA, one strand shown
Matrix: in vitro
Concentration: not given
Notes: 8-mer, flanks averaged, mean of 2 arrays, mostly near background
Baseline: not given
Direction: higher = stronger binding
Construct (chain): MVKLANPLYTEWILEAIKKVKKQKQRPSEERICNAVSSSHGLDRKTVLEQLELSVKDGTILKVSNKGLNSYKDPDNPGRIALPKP
| Sequence | E-score |
| --- | --- |
| CTTGGACA | -0.179 |
| GCAGTCAA | -0.063 |
| CTACGGGC | 0.357 |
| CTGGCGAC | 0.0908 |
| ACTTCAAT | -0.0741 |
| TACAGCTA | -0.215 |
| ACCGCCCC | 0.232 |
| ACAAACCT | -0.151 |

Sample 2
SMILES: CC1=C(C#N)[C@@H](c2ccc3[nH]nc(C)c3c2)C(C#N)=C(c2ccc(Cl)cc2)N1
Technique: competition with immobilised ligand
Concentration: 1 µM
| target | observed | remaining binding [%] |
| --- | --- | --- |
| Proto-oncogene tyrosine-protein kinase receptor Ret (RET, Homo sapiens, UniProt P07949, M918T) | cell-free assay | 97.2 |
| Cyclin-dependent kinase-like 2 (CDKL2, Homo sapiens, UniProt Q92772) | binding | 97.9 |
| Ephrin type-B receptor 2 (EPHB2, Homo sapiens, UniProt P29323) | cell-free assay | 100 |
| Cyclin-dependent kinase 2 (CDK2, Homo sapiens, UniProt P24941) | cell-free assay | 100 |
| Receptor-type tyrosine-protein kinase FLT3 (FLT3, Homo sapiens, UniProt P36888, K663Q) | cell-free assay | 100 |

Sample 3
Target: Casein kinase I isoform gamma-1 (CSNK1G1, Homo sapiens, UniProt Q9HCP0)
UniProt Q9HCP0, sequence (whole entry, looked up): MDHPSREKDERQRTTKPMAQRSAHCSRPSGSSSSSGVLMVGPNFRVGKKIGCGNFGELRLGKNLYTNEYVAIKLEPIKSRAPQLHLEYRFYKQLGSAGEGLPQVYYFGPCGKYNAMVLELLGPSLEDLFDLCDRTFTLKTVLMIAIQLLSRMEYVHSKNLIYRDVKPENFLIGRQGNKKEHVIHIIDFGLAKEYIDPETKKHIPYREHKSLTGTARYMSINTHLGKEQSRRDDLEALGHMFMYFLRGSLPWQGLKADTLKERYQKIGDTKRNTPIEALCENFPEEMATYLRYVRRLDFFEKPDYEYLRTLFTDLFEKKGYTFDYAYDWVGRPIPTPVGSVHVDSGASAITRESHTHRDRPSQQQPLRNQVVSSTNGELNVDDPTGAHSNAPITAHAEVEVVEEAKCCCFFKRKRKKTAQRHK
Observed: enzyme activity
Mode: inhibitor
Concentration: 0.5 µM
Baseline: control
| SMILES | remaining activity [%] |
| --- | --- |
| N#Cc1c(NC(=O)c2cccc3ccccc23)sc2c1CCCC2 | 109 |
| Ic1cccc(CSc2nnc(-c3ccncc3)o2)c1 | 91.7 |
| Nc1cccc(-c2cc3c(Oc4cccc(O)c4)ncnc3[nH]2)c1 | 102 |
| CCN(CC)C(=O)c1ccc(Nc2nc(OCC3CCCCC3)c3[nH]cnc3n2)cc1 | 68.5 |
| CN([C@@H](Cc1ccc(OS(=O)(=O)c2cccc3cnccc23)cc1)C(=O)N1CCN(c2ccccc2)CC1)S(=O)(=O)c1cccc2cnccc12 | 102 |
| N#C/C(=C\c1ccc(O)c(O)c1)C(=O)NCc1ccccc1 | 102 |
| COc1cc2ncnc(Nc3ccc(O)c(Br)c3)c2cc1OC | 92.4 |
| O=C1c2ccccc2-c2n[nH]c3cccc1c23 | 85.6 |
| Cn1nc2c3c(cccc31)C(=O)c1ccccc1-2 | 102 |
| Cc1nc2cc3nc(-c4cccs4)cnc3cc2n1C | 92.2 |

Further values, each from its own experiment
| Compound | assay | test system | setting | scale | measurement | result |
| --- | --- | --- | --- | --- | --- | --- |
| CC(C)n1cnc(-c2ccc(F)cc2)c1-c1ncc(C(=O)Nc2ccc(N3CCN(C)CC3)cc2)[nH]1 | Olink proteomics, item: A1BG | idiopathic pulmonary fibrosis patients, serum | 30 mg twice daily, week 12 | baseline: baseline | serum protein level change | 0.122 NPX |

A few entries again (sample 1):
| Sequence | E-score |
| --- | --- |
| GCAGTCAA | -0.063 |
| CTACGGGC | 0.357 |
